Measured values pooled from the literature.
Each line is one published result; not all experiments were run side by side. Several values in a cell are separate wells, animals, samples, runs or records. ± marks the error that the study gave.
TOP2A: DNA topoisomerase 2-alpha (TOP2A, Homo sapiens, UniProt P11388)
UniProt P11388, sequence (whole entry, looked up): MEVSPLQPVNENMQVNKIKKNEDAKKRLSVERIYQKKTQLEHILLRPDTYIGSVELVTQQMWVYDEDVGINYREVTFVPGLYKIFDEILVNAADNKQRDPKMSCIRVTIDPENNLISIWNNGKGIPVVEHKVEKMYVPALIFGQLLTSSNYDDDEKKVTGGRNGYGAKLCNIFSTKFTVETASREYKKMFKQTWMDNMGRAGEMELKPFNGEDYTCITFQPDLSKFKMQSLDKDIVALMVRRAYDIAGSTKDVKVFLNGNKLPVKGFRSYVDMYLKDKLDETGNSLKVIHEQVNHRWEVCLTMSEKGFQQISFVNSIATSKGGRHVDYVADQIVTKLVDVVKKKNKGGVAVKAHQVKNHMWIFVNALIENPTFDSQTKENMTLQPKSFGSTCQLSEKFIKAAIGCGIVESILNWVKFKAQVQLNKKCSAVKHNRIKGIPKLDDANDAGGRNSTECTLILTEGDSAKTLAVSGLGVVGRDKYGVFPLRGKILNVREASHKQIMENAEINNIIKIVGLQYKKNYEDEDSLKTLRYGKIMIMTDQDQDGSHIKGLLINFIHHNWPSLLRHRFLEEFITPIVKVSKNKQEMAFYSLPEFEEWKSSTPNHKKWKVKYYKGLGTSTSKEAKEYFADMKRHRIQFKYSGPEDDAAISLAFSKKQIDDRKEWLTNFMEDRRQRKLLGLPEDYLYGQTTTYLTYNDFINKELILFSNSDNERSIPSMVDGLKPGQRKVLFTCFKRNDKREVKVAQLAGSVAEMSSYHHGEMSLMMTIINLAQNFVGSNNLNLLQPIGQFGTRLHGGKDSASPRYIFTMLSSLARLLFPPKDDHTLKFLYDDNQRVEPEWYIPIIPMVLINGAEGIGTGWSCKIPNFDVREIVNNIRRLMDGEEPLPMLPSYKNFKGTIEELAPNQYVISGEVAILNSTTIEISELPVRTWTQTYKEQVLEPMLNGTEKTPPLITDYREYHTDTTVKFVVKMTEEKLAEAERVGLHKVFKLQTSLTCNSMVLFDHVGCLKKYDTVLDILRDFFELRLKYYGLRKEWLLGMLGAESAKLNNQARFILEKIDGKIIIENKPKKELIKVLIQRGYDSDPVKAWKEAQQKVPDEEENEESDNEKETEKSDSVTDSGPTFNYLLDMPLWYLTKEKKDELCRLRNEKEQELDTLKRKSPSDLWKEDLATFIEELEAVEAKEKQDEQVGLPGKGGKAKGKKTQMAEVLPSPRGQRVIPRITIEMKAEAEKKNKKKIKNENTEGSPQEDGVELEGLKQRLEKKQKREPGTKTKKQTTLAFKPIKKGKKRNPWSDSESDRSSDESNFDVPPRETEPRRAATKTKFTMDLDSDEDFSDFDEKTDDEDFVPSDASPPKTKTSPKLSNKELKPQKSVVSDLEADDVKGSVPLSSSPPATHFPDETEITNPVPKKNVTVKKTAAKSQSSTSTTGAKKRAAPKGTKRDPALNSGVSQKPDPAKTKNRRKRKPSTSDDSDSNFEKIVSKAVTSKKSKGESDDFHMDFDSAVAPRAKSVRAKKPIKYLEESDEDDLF
STUB1: E3 ubiquitin-protein ligase CHIP (STUB1, Homo sapiens, UniProt Q9UNE7)
UniProt Q9UNE7, sequence (whole entry, looked up): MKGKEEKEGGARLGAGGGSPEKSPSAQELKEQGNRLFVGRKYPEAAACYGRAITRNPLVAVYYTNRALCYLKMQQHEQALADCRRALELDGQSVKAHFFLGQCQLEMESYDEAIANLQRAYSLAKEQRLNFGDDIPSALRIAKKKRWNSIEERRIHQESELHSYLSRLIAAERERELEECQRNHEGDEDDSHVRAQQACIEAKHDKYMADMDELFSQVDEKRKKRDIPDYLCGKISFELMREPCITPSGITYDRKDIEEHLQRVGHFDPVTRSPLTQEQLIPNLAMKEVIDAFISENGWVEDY
HTR2C: 5-hydroxytryptamine receptor 2C (HTR2C, Homo sapiens, UniProt P28335)
UniProt Q16774, sequence (whole entry, unmodified, looked up): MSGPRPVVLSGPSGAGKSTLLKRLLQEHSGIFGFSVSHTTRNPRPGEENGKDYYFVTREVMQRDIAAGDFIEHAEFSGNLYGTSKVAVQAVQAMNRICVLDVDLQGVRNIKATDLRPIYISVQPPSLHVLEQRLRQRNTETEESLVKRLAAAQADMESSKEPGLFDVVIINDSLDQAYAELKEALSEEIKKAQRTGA
UniProt P51575, sequence (whole entry, unmodified, looked up): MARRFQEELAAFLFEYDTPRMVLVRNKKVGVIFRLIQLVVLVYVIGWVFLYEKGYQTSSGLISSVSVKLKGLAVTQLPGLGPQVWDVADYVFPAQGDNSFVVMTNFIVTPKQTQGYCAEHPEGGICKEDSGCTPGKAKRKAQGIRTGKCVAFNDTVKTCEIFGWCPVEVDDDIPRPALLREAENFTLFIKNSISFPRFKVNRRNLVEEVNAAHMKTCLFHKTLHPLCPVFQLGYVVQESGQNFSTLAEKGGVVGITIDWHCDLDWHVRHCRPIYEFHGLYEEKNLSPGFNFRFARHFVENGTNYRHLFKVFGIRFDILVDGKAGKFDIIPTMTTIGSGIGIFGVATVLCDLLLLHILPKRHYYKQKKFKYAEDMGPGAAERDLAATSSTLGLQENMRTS
UniProt P28335, sequence (whole entry, looked up): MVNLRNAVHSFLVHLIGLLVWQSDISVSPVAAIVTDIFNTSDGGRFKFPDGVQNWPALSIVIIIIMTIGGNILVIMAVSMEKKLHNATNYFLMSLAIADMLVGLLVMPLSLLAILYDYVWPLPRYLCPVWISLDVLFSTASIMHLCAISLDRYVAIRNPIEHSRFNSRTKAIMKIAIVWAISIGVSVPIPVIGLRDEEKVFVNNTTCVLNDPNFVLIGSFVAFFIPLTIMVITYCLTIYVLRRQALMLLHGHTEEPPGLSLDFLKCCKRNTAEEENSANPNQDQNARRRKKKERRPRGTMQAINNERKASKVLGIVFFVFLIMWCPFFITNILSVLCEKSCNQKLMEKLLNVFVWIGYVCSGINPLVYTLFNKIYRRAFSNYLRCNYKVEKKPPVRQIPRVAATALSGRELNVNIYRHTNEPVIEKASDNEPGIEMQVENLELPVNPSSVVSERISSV
UniProt P40337, sequence (whole entry, unmodified, looked up): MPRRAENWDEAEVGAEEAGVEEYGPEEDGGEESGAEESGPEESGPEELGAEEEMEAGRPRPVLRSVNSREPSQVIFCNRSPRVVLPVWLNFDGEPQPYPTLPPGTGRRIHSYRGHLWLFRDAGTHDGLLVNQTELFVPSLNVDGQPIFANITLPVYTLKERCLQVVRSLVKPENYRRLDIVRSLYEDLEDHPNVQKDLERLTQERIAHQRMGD
UniProt Q92633, sequence (whole entry, unmodified, looked up): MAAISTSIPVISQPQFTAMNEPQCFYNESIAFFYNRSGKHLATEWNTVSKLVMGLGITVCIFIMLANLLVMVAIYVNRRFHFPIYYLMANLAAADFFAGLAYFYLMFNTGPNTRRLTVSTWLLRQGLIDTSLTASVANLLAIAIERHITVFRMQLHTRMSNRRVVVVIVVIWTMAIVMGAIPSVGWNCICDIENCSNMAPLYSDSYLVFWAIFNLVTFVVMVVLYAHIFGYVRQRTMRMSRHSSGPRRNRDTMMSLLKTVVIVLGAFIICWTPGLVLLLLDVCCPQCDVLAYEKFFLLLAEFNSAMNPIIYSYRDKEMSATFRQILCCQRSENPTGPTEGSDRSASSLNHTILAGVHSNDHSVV
UniProt P28223, sequence (whole entry, looked up): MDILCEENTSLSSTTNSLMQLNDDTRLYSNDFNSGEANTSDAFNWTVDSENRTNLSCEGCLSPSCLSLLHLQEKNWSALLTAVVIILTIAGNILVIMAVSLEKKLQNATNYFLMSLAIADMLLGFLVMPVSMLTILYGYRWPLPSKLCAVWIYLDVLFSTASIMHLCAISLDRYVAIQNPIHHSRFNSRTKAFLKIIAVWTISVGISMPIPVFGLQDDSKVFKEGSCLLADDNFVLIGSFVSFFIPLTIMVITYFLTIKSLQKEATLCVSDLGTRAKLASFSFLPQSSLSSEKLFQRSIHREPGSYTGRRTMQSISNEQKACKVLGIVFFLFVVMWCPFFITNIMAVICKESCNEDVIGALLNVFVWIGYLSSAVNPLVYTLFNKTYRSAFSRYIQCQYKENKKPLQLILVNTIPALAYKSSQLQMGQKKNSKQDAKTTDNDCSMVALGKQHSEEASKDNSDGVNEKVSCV
UniProt Q9JMA9, sequence (whole entry, looked up): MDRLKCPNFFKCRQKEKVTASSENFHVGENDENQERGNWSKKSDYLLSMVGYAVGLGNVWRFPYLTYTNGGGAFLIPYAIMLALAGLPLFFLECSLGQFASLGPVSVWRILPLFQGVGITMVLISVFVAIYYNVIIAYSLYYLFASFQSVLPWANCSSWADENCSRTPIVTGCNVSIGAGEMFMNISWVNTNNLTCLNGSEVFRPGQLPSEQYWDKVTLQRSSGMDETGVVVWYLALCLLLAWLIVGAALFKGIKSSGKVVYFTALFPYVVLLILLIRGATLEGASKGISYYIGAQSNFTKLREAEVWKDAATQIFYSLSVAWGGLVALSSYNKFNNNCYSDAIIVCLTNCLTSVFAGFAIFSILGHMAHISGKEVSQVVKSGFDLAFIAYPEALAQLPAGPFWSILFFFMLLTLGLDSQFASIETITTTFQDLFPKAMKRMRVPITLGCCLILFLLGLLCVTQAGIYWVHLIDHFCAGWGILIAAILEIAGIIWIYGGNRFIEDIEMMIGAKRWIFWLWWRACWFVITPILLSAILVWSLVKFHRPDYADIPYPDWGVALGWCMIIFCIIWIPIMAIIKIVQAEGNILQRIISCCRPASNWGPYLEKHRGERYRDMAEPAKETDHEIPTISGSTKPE
UniProt A2RJT9, sequence (whole entry, looked up): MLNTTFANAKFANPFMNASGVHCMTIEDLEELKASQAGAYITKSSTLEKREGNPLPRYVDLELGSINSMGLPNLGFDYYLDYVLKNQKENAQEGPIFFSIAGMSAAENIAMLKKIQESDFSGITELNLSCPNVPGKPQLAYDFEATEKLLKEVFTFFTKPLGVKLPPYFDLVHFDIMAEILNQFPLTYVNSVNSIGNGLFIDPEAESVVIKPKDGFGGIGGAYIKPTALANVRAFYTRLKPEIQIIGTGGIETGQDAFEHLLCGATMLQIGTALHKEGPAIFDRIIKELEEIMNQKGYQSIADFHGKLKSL

Structure (SMILES) = CCOc1ccc(NC(=O)O[C@H](Cn2nc(C(C)C)cc2C(C)C)C(C)C)cc1; target = Neuronal acetylcholine receptor; alpha4/beta2, (α4)2(β2)3 stoichiometry (Homo sapiens, UniProt P17787+P43681); test = two-electrode voltage clamp; system = Xenopus oocytes; setting = 3 µM, high-sensitivity stoichiometry, with: ACh 10 µM; how to read = baseline: ACh alone; quantity = ACh-evoked current; value = 86 ± 10%
Structure (SMILES) = C=CC(=O)N1CCC(COCC(=O)N2CCN(c3nc(-c4cnc(N)nc4C(F)F)nc(N4CCOC[C@@H]4C)n3)CC2)CC1; target = PIKFYVE (Homo sapiens, UniProt Q9Y2I7); test = KINOMEscan; setting = 1 µM; how to read = baseline: DMSO control; quantity = remaining binding; value = 71%
Structure (SMILES) = OC[C@H]1OC(O)[C@H](O)[C@@H](O)[C@@H]1O (some centres unmarked); target = Hexokinase-3 (HK3, Homo sapiens, UniProt P52790, D264A/R265A); test = substrate inhibition; setting = mutant D264A/R265A, complete substrate inhibition model, with: ATP 20 mM; quantity = kcat; value = 39 ± 19 s⁻¹
Structure (SMILES) = COc1cc(F)ccc1-c1ncnc(Nc2cccc(C[S@](C)(=N)=O)c2)n1; target = MAPK12 (Homo sapiens, UniProt P53778); test = kinase activity; setting = 10 µM, with: 10 µM ATP; quantity = remaining activity; value = 103%
Structure (SMILES) = Cc1ccc(-n2nc(C)c3c(N)nc(N)nc32)c(Cl)c1; target = RIOK2 (Homo sapiens, UniProt Q9BVS4); test = KinomeScan competition; setting = 7.5 µM; quantity = remaining binding; value = 21%
Structure (SMILES) = Oc1ccc(/C=C/c2cc(O)cc(O)c2)cc1; target = O-methyltransferase (Sorghum bicolor, UniProt A0A1B6PFV1); test = ITC; setting = concentration not given, endothermic site, two-site model, with: SFG; quantity = binding stoichiometry; value = 0.39
Structure (SMILES) = O=S(=O)(O)C1CCNCC1; target = SLC6A6 (Homo sapiens, UniProt P31641, Y138A); test = binding, microscale thermophoresis; setting = 40.3 nM, fitted curve; how to read = higher = more binding; quantity = fraction bound; value = 0
Structure (SMILES) = O=C1CC(C(=O)O)NC(=O)N1 (centres unmarked); target = Dihydroorotate dehydrogenase A (fumarate) (pyrDA, Lactococcus lactis subsp. cremoris, UniProt A2RJT9); test = substrate, stopped-flow; setting = concentration not given, pH 8.5, 4 °C, wild-type enzyme; quantity = flavin reduction rate; value = 170 ± 12 s⁻¹
Structure (SMILES) = O=c1nc(SCc2cc(F)cc(C(F)(F)F)c2)nc(SCc2ccc3sccc3c2)[nH]1; target = TOP2A; test = ATPase activity; setting = 7.8 µM, with: ATP 0.075 mM; quantity = ATP hydrolysis rate; value = 0.446 µM/min and 0.508 µM/min
Structure (SMILES) = [Na+]; target = Sodium- and chloride-dependent neutral and basic amino acid transporter B(0+), apo form (Slc6a14, Mus musculus, UniProt Q9JMA9); test = pre-steady-state charge movement; system = Xenopus oocytes; quantity = Hill coefficient; value = 1.9
Structure (SMILES) = O=C(O)[C@@H]1CCCN1c1ncnc2[nH]cnc12 (racemic); target = STUB1; test = binding, affinity selection mass spectrometry; how to read = baseline: other proteins in batch; quantity = log fold enrichment; value = -0.0285
Structure (SMILES) = COc1ccc(C(=O)COc2ccc(N3C(=O)[C@@H]4[C@@H]5C=C[C@@H]([C@H]6C[C@@H]56)[C@@H]4C3=O)cc2)cc1; target = 3-beta-hydroxysteroid-Delta(8),Delta(7)-isomerase (Mus musculus, UniProt P70245); system = Mut6; setting = concentration not given, 24 h; quantity = 8,9-dehydrocholesterol level; value = no effect
Structure (SMILES) = CCN1CCC[C@H]1CNC(=O)c1c(O)c(Cl)cc(Cl)c1OC; target = Probable G-protein coupled receptor 162 (GPR162, Homo sapiens, UniProt Q16538); test = β-arrestin recruitment, TANGO luminescence, measured: GPR162; setting = concentration not given; how to read = baseline: basal luminescence; quantity = log2 fold change; value = 0.53
Structure (SMILES) = CCCCC[C@H](O)/C=C/[C@H]1[C@H](O)CC(=O)[C@@H]1C/C=C\CCCC(=O)O; target = PTGER1 (Homo sapiens, UniProt P34995, F334A/G92A); test = IP1 accumulation, agonist; system = AD293; setting = 1 h; how to read = baseline: wild type receptor; quantity = Emax; value = 52.5 ± 4.38%
Structure (SMILES) = Cc1ccc(C[C@H](NC(=O)OC(C)(C)C)C(=O)NC/C=C/S(=O)(=O)c2ccccc2)cc1; target = Cathepsin S (CTSS, Homo sapiens, UniProt P25774); test = inhibitor; setting = with: Z-Phe-Arg-AMC; quantity = kinact/Ki; value = 3640 M⁻¹ s⁻¹
Structure (SMILES) = COCCC(=O)N1CCC(Oc2ccccc2)C1 (centres unmarked); target = STUB1; test = binding, affinity selection mass spectrometry; how to read = baseline: other proteins in batch; quantity = fold enrichment; value = 0.769
Structure (SMILES) = C[C@@H](O)CNC(C)(C)CC(=O)N[C@@H]1CCc2ccccc2N(Cc2ccc(-c3ccccc3-c3nn[nH]n3)cc2)C1=O; target = GHSR (Homo sapiens, UniProt Q92847); test = β-arrestin 2 recruitment, NanoBiT; system = HEK293T; quantity = Emax; value = 92.4 ± 3.8%
Structure (SMILES) = O=c1nc(SCc2cc(F)cc(C(F)(F)F)c2)nc(SCc2csc3ccc(Cl)cc23)[nH]1; target = TOP2A; test = DNA relaxation; setting = 1.95 µM; quantity = mean relaxed DNA; value = 93.8%
Structure (SMILES) = CC(=O)O[C@H]1C(=O)[C@@]2(C)[C@H]([C@H](OC(=O)c3ccccc3)[C@]3(O)C[C@H](OC(=O)[C@H](O)[C@@H](NC(=O)c4ccccc4)c4ccccc4)C(C)=C1C3(C)C)[C@]1(OC(C)=O)CO[C@@H]1C[C@@H]2O; target = Tubulin alpha-1A/beta chain (Sus scrofa, UniProt P02550+P02554); test = inducer; setting = 10 µM, 37 °C; quantity = tubulin polymerization time; value = ≤ 20 min
Structure (SMILES) = CC1CCCN(C(=O)c2cc3ncccn3n2)C1 (centres unmarked); target = STUB1; test = binding, affinity selection mass spectrometry; how to read = baseline: other proteins in batch; quantity = log fold enrichment; value = 0.271
Structure (SMILES) = COc1cc(C(=O)NS(=O)(=O)c2ccccc2C)ccc1Cc1cn(C)c2ccc(NC(=O)OC3CCCC3)cc12; target = LRRC8A/LRRC8C (Homo sapiens, UniProt Q8IWT6+Q8TDW0, Y124F/Y126F); test = whole-cell patch clamp; system = HCT116 LRRC8-/- transfected; setting = at +100 mV; quantity = Hill coefficient; value = 1.53
Structure (SMILES) = CCNC(=O)/C=C/c1cccc(Br)c1; target = SLC6A19 (Homo sapiens, UniProt Q695T7); test = inhibitor, L-[14C]leucine uptake; system = CHO-BC cells; setting = 0.003 µM, 6 min, unit not given, with: GPNA 3 mM, JPH203 3 µM; how to read = baseline: uninhibited cells; quantity = remaining transport activity; value = 0.975
Structure (SMILES) = Nc1nc2c(ncn2[C@@H]2O[C@H](COP(=O)(O)O)[C@@H](O)[C@H]2O)c(=O)[nH]1; target = GUK1 (Homo sapiens, UniProt Q16774, R41A); test = enzyme activity, NADH-coupled; setting = 62.5 µM; quantity = reaction rate; value = 1.19 s⁻¹ and 0.232 s⁻¹ and 0.552 s⁻¹
Structure (SMILES) = c1cncc(OC[C@H]2CN(CCN3CCc4ccccc43)CCO2)c1; target = HTR2A (Homo sapiens, UniProt P28223); test = radioligand binding; setting = concentration not given, with: [3H]ketanserin; quantity = inhibition; value = 66%
Structure (SMILES) = CCc1oc2c([C@H](CO)N(CC)CC)cccc2c1C; target = LPAR1 (Homo sapiens, UniProt Q92633, W271F); test = Gi activation, agonist, NanoBiT G-protein dissociation; system = HEK293T; setting = W271F mutant, unit not given; how to read = baseline: wild type; quantity = change in Emax; value = 0.926
Structure (SMILES) = CC(=O)N[C@H](C(=O)N1C[C@H](O)C[C@H]1C(=O)NCc1ccc(-c2scnc2C)cc1)C(C)(C)SCCCCCCNC(=O)C[C@@H]1N=C(c2ccc(Cl)cc2)c2c(sc(C)c2C)-n2c(C)nnc21; target = BRD4/VHL, BD2; with elongins B/C (Homo sapiens, UniProt O60885+P40337); test = ITC; setting = 25 °C, ternary complex, with: BRD4 BD2; quantity = ΔH; value = -6.9 ± 0.6 kcal/mol
Structure (SMILES) = Clc1cncc(OC[C@@H]2CN(CCN3CCc4ccccc43)CCO2)c1; target = HTR2C; test = radioligand binding; setting = concentration not given, with: [3H]mesulergine; quantity = inhibition; value = 4.4%
Structure (SMILES) = O=S(=O)(O)O; target = GUK1 (Homo sapiens, UniProt Q16774); test = enzyme activity, NADH-coupled; setting = 1 mM, with: ATP 125 µM; quantity = reaction velocity; value = 0.0851 µM/s and 0.076 µM/s and 0.0632 µM/s
Structure (SMILES) = CC1=C(/C=C/C(C)=C/C=C/C(C)=C/C=C/C=C(C)/C=C/C=C(C)/C=C/C2=C(C)CCCC2(C)C)C(C)(C)CCC1; target = Beta-lactoglobulin (LGB, Bos taurus, UniProt P02754); test = intrinsic fluorescence; setting = 298 K; quantity = quenching rate constant; value = 1.27e+12 ± 1.8e+11 M⁻¹ s⁻¹
Structure (SMILES) = Nc1ccc2cc3ccc(N)cc3nc2c1; target = Chymotrypsinogen A, activated (alpha-chymotrypsin) (Bos taurus, UniProt P00766); test = isothermal titration calorimetry; setting = concentration not given, 25 °C, with: 0.5 M betaine; quantity = entropic contribution TΔS° of binding; value = -17.3 ± 0.98 kcal/mol
Structure (SMILES) = CC1=C(/C=C/C(C)=C/C=C/C(C)=C/C=O)C(C)(C)CCC1; target = Rhodopsin, A269F/S144C (RHO, Bos taurus, UniProt P02699, A269F/S144F); test = retinal entry, Alexa488 FRET; system = lipid bicelles; setting = 28 °C, A269F mutant; how to read = baseline: wild-type rhodopsin; quantity = relative kon; value = 0.071 ± 0.004
Structure (SMILES) = NC(=O)C1=CN([C@@H]2O[C@H](COP(=O)(O)OP(=O)(O)OC[C@H]3O[C@@H](n4cnc5c(N)ncnc54)[C@H](O)[C@@H]3O)[C@@H](O)[C@H]2O)C=CC1; target = xylose reductase, Scheffersomyces stipitis, adaptor-fused, on DNA origami; test = substrate, absorbance; setting = with: D-xylose; quantity = Km; value = 240 ± 20 µM
Structure (SMILES) = C[C@]12C[C@H](O)[C@H]3[C@@H](CCC4=CC(=O)CC[C@@]43C)[C@@H]1CC[C@@H]2C(=O)CO; target = CYP11B2 (Homo sapiens, UniProt P19099); system = nanodiscs; setting = 25 °C, fast phase; quantity = kon; value = 70000 ± 10000 M⁻¹ s⁻¹
Structure (SMILES) = O=C(CN1CCO[C@H](COc2cccnc2)C1)N1CCc2ccccc21; target = HTR2C; test = radioligand binding; setting = concentration not given, with: [3H]mesulergine; quantity = inhibition; value = 36.4%
Structure (SMILES) = Nc1ncnc2c1ncn2[C@@H]1O[C@H](COP(=O)(O)CP(=O)(O)OP(=O)(O)O)[C@@H](O)[C@H]1O; target = P2X purinoceptor 1 (P2RX1, Homo sapiens, UniProt P51575, D170A); test = saturation binding; system = HEK293; setting = 25 nM; quantity = specific binding; value = 71.5 CCPM and 156 CCPM and 55 CCPM
